Results pooled from the literature.
Every numbered part comes from another study and shows a few of its results, in no order.

Block 1
Target: UBE2O UBC core domain (UniProt Q9C0C9)
Method: yeast two-hybrid
Sample: yeast
Setting: mostly zero background
Relative to: not given
Reading: higher = stronger interaction
B1: MKRN3 RING domain (UniProt Q13064); chain FAVQRGMDKVCGICMEVVYEKANPNDRRFGILSNCNHSFCIRCIRRWRSARQFENRIVKSCPQCRVTSELVIPSE
B2: MARCHF1 RING domain (UniProt Q8TCQ1); chain TAPRSQSRLSVCPSTQDICRICHCEGDEESPLITPCRCTGTLRFVHQSCLHQWIKSSDTRCCELCKYDFIMETKLKPLRKWE
B3: CNOT4 RING domain (UniProt O95628); chain MSRSPDAKEDPVECPLCMEPLEIDDINFFPCTCGYQICRFCWHRIRTDENGLCPACRKPYPED
B4: ARIH2 RING domain (UniProt O95376); chain HVPTSHPPHHCAVCMQFVRKENLLSLACQHQFCRSCWEQHCSVLVKDGVGVGVSCMAQDCPLRTPEDFVF
B5: RNF6 RING domain (UniProt Q9Y252); chain NSIDSELGKICSVCISDYVTGNKLRQLPCMHEFHIHCIDRWLSENCTCPICRQPVLGSNIAN
B6: RNF182 RING domain (UniProt Q8N6D2); chain AESQASDELECKICYNRYNLKQRKPKVLECCHRVCAKCLYKIIDFGDSPQGVIVCPFCRFETCLPDDEV
B7: NFX1 RING domain (UniProt Q12986); chain IEQLTTEKYECMVCCELVRVTAPVWSCQSCYHVFHLNCIKKWARSPASQADGQSGWRCPACQNVSAHVPNTY
B8: TRIM11 RING domain (UniProt Q96F44); chain LSTNLQEEATCAICLDYFTDPVMTDCGHNFCRECIRRCWGQPEGPYACPECRELSPQRNLRP
B9: VPS8 RING domain (UniProt Q8N3P4); chain TRGLNPKQDYCSICLQQYKRRQEMADEIIVFSCGHLYHSFCLQNKECTVEFEGQTRWTCYKCSSSNKVGKLSE
B10: RING1 RING domain (UniProt Q06587); chain SPRSLHSELMCPICLDMLKNTMTTKECLHRFCSDCIVTALRSGNKECPTCRKKLVSKRSLR
Construct (chain): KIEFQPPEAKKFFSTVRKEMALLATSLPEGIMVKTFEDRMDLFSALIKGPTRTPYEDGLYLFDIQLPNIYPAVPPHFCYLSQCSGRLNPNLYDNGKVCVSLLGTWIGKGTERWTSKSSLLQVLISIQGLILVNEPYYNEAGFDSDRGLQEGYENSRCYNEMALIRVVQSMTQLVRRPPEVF
| Sequence | lacZ reporter activity |
| --- | --- |
| DDVLTKDAGECVICLEELLQGDTIARLPCLCIYHKSCIDSWFEVNRSCPEHPAD (ZNRF1 RING domain (UniProt Q8ND25)) | 0 |
| B1 (MKRN3 RING domain) | 0 |
| B2 (MARCHF1 RING domain) | 0 |
| LEALSSDFLACKICLEQLRAPKTLPCLHTYCQDCLAQLADGGRVRCPECRETVPVPPEGV (TRIM56 RING domain (UniProt Q9BRZ2)) | 0 |
| B3 (CNOT4 RING domain) | 0 |
| B4 (ARIH2 RING domain) | 0 |
| EIKEYKARLTCPCCNTRKKDAVLTKCFHVFCFECVRGRYEARQRKCPKCNAAFGAHDFHR (RNF40 RING domain (UniProt O75150)) | 0 |
| B5 (RNF6 RING domain) | 0 |
| B6 (RNF182 RING domain) | 0 |
| FAEQPSVKLCCQLCCSVFKDPVITTCGHTFCRRCALKSEKCPVDNVKLTVVVNNI (TRAF7 RING domain (UniProt Q6Q0C0)) | 0 |
| B7 (NFX1 RING domain) | 0 |
| B8 (TRIM11 RING domain) | 0 |
| FDPPLESKYECPICLMALREAVQTPCGHRFCKACIIKSIRDAGHKCPVDNEILLENQLFP (TRAF6 RING domain (UniProt Q9Y4K3)) | 0 |
| LVKDFNPYITCYICKGYLIKPTTVTECLHTFCKTCIVQHFEDSNDCPRCGNQVHETNPLE (PCGF5 RING domain (UniProt Q86SE9)) | 0 |
| B9 (VPS8 RING domain) | 0 |
| B10 (RING1 RING domain) | 0 |

Block 2
Target: Histone acetyltransferase KAT6A, winged helix 2, GST fusion (KAT6A, Homo sapiens, UniProt Q92794, residues 85-181)
Method: protein binding microarray
Molecule type: double-stranded DNA, one strand shown
Sample: in vitro
Tested at: not given
Setting: 8-mer, flanks averaged, mean of 2 arrays, mostly near background
Relative to: not given
Reading: higher = stronger binding
Residues (chain): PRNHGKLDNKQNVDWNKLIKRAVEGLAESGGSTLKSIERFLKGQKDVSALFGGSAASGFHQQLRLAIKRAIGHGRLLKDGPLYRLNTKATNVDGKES
| Sequence | E-score |
| --- | --- |
| CAGTCGAG | -0.0387 |
| CATCTAGA | 0.0293 |
| ACTGCTAG | -0.0545 |
| AAGTAATA | -0.177 |
| CCCAAAAG | 0.19 |
| GGTTAATA | 0.13 |
| GTTGATCA | 0.0525 |
| ACAGATAA | 0.00855 |
| AACCCCGG | 0.059 |
| GGGTAAGA | -0.0574 |
| CGAAAAGA | 0.107 |
| CACCCACC | -0.0377 |
| CTGATCCA | 0.0227 |
| AAGCCATC | 0.0158 |
| TGAATACA | 0.114 |
| AAGAGTGA | -0.071 |
| ATAGAGGC | -0.00334 |
| ACCGAGTC | -0.00784 |
| GCTTCGGA | 0.00108 |
| CCATCGAC | 0.0721 |
| ACCGTCGT | -0.136 |
| ACGATAAT | -0.00483 |
| CGGTCAAC | 0.141 |
| GTATGGCA | 0.0297 |
| CGCCAGGA | 0.173 |

Block 3
Target: Interferon regulatory factor 7, full length, phosphomimetic (IRF7, Homo sapiens, UniProt Q92985, residues 1-503, S101K/S471D/S472D/S475D/S476D/S477D/S483D/S484D/S487D)
Method: protein-binding microarray
Molecule type: double-stranded DNA, one strand shown
Sample: in vitro
Tested at: 250 nM
Setting: 60-bp whole probe
Added: salmon DNA 0.4 mg/ml
Relative to: random background probes
Reading: higher = stronger binding
Shared flanks, not repeated: GCCTAGCAC … GTCTTGATTCGCTTGACGCTGCTG
Residues (chain): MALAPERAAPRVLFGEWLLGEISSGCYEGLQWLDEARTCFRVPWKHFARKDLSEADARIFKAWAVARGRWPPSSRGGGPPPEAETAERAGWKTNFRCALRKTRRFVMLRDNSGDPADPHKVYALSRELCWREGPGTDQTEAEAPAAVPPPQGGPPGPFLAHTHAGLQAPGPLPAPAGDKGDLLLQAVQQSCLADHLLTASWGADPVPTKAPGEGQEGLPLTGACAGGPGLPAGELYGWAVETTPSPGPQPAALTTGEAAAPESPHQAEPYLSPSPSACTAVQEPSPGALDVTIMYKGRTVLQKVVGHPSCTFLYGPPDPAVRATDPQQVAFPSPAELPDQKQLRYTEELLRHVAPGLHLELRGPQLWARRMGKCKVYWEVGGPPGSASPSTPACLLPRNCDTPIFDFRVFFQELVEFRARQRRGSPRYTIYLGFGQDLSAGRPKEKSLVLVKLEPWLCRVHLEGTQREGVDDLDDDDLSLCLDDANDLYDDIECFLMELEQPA
| Sequence | log fluorescence [z-score] |
| --- | --- |
| TCACCTTTCGGAATACCACTGTGCTAG | 1.47 |
| TTAGAACTGGGCTTTCGATTAGTGCTA | -0.147 |
| TCTCTTTCCAACTCTGTTTTCGTGCTA | 2.52 |
| TTAGAACTGGGGTATCGAATAGTGCTA | -0.311 |
| TTAGATATCAGGTTCGATTAGTGCTAG | 1.75 |
| GTCAGTTTTGAGCTCTGTCTGTGCTAG | 0.196 |
| GACTGTTTCGGTATCGGGACGTGCTAG | 4.8 |
| TTAGATTTCGGGTATCGATGAGTGCTA | 0.699 |
| CCCATTCTGAATTCGAATGCGTGCTAG | 0.902 |
| GACGATCTCAGATTGGAGACGTGCTAG | -0.111 |
| TTAGGTATCCCACTGCTTTAGTGCTAG | -0.172 |
| GACGATTTCAATTCCGAGACGTGCTAG | 0.357 |
| TGGGCTGTGGGTTTGAGTCTGTGCTAG | -0.99 |
| TTAGGACTGGGACTGGGTGAGTGCTAG | -0.0586 |
| TTAGATTCCAGTTTCCATTAGTGCTAG | 5.07 |
| TCATCTTTGCAGATAAAACTGTGCTAG | 0.389 |
| TTAGATATCGGTCTCGATTAGTGCTAG | 1.91 |
| GACGGTTTCCTTTCCCTGATGTGCTAG | 4.63 |
| TCTATTTTCTGAATGTCTTCGTGCTAG | 2.01 |
| GACGGTATCGACACTGGGGATGTGCTA | -0.56 |
| TCAGAATTAGGTTTCACACTGTGCTAG | 0.823 |
| GACGTTATCGGGTATCGGGACGTGCTA | 0.000916 |
| GACGGTATGCTTATCCTGACGTGCTAG | -0.71 |
| GAAGGTTTCGGTTCCGGGACGTGCTAG | 12.3 |
| GACGGTTTCGGCTCCGGGACGTGCTAG | 3.29 |

Block 4
Target: RING finger protein unkempt homolog, zinc fingers 1-6, GST-SBP tag (UNK, Homo sapiens, UniProt Q9C0B0, residues 30-357)
Method: RNA Bind-n-Seq
Molecule type: RNA
Sample: in vitro
Tested at: not given
Setting: RNA with constant flanks, human and mouse sites, ends assumed
Relative to: input RNA pool
Reading: higher = stronger binding
Shared flanks, not repeated: GGGAGUUCUACAGUCCGACGAUC … CAACAGAGGAUUGAGCAUCA
Target sequence (chain): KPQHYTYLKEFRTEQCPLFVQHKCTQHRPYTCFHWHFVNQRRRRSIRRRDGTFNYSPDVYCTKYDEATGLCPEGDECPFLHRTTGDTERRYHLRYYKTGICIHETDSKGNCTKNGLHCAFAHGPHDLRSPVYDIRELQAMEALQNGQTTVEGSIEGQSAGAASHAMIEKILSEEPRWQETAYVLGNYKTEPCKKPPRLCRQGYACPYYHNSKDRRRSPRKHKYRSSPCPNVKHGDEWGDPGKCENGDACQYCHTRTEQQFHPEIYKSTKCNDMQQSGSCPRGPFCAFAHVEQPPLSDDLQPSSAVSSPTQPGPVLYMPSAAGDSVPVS
| Sequence | bound/input enrichment [ratio] |
| --- | --- |
| AAUUCCAUUGCAAACUUUUUCCGUUUGCUAUCUCAGGGAGGUGGAAAAAUCAAGGUUGAGAUUUUGAAAAUCCUUUCGAAUUUUGCUGAAAAUCCAGAUAUGUUGAAGAAACUUCUCAGU | 0.085 |
| CUCCUGGCCAGACGCUGCCGCUGCCGCUGCACCACGGCGUUUUUUUACAACAUUCAACUUUAGUAUUUUUACUAUUAUAAUAUAAUAUGGAACCUUCCCUCCAAAUUCUUCAAUAAAAGU | 45 |
| UCACAGCUAGGGAGAAAGAAGUGAUACCGGAAAAGAAAACCUAAAUGAAGAGAAUGAGGAUGACUGCACAGUAGAUGGCCACCUCUACCUCCACAGAGGCAAAGUCAGCCUCGUGGUGGA | 0.658 |
| GAAGAGAAUAAACUCAUCUACACACCUAUUUUUAAUGAAUACAUUUCUUUGGUAGAAAAAUACAUUGAAGAACAGCUGCUGCAGCGGAUUCCUGAGUUCAACAUGGCAGCCUUCACCACA | 0.519 |
| CAAGUGCUGGCAGCUUUGCAGGAACGUCUUGACAACGUCUCUCACACUCCUUCUAGUUACAUAGAAACUUUACCUAAAGCUGUCAAAAGAAGAAUUAAUGCCCUGAAGCAGCUCCAGGUG | 1.18 |
| CCCUACCCCUCCCCUUUUCUUAUUAUUCAGAAUAUAAACCUGCAAAGCUCUGCUCUGUUUUGGUUUUGAAAGUUUAAGCUUUUCUGCUUCUGUGAGAGCACAGGCUUCUGUCCCUUUUGA | 0.891 |
| AAACAAGCCUUUGAAAGAUGUCAUAGGCUUUCUGAUCCUUCUGAUUUACCAAGGAAUGCCUUUAGAAUUUUUACCAUUCUUGUGGAAUUUUUAUGUAUUGAGCAUAUUGAUUAUGCUUUA | 4.28 |
| AUCUUAUUACAGGGACUUGCUGUGCUUGCCAAGGAAAGACCACCAAAUCCCAUCGAGUUCCUAGCAUCUUAUCUUUUAAAAAACAAGGCGCAGUUUGAAGAUCGAAAUUGAUUUCUUGGG | 0.342 |
| GACAGCAGCCACCAUGUCGGAUACGCGGCGGCGAGUGAAGGUCUAUACCCUGAACGAAGACCGGCAAUGGGACGACCGAGGCACCGGGCACGUCUCCUCCACUUACGUGGAGGAGCUCAA | 0.211 |
| UAUGUUUACGGAGUCCUGUUUAGUUUGGCAGAAAGCAGAAAGAAAACUGAGAGACUUGCUUUUAGAAAGAACAGACUUCCACCAGAAUUUUCACCAGUGAUCAUUAAAGAAUGGGCAGCU | 0.689 |
| CAGACACUCAAGCCUUGCACAGACACACAUGGCUUUAUUUGUCCUUUCAGCUGAGAGCACCUUCAUUGAUCUCUAAGGAGCAGGUUCUGUCCUAACUUGCCUGUUACAUCAUUCCCUUGU | 0.0792 |
